# Experimental data from different studies.
# The chains behind the UniProt entries cited, without tags or fusion partners. Residues count along the entry.
# UniProt P17787, 26-502 limits assumed: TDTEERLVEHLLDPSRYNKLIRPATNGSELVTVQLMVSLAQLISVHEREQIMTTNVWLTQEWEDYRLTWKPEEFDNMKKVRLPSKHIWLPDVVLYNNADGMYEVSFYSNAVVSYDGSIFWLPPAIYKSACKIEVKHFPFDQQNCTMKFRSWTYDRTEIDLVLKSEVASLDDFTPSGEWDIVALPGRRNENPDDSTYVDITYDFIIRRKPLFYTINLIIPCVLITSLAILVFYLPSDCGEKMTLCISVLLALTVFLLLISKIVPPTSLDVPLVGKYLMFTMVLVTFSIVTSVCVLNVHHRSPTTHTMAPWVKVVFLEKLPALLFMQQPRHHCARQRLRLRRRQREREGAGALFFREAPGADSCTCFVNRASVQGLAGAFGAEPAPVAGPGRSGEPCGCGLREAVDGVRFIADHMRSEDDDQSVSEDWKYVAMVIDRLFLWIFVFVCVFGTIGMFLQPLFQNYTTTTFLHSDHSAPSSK
# UniProt Q15822, 27-529 limits assumed: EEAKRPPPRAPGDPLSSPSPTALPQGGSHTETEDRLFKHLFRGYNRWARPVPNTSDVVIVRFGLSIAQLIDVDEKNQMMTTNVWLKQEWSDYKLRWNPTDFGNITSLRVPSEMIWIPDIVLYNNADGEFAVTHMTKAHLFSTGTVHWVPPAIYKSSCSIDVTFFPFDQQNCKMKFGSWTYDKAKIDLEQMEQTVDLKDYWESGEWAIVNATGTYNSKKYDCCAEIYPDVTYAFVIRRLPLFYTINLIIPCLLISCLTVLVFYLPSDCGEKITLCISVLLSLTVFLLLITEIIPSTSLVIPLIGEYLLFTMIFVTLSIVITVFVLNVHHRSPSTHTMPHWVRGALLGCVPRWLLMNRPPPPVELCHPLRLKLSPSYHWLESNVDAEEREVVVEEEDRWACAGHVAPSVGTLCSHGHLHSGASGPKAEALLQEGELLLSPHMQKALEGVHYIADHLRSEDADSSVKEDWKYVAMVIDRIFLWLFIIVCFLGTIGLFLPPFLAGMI
# UniProt P37136, 32-574 limits assumed: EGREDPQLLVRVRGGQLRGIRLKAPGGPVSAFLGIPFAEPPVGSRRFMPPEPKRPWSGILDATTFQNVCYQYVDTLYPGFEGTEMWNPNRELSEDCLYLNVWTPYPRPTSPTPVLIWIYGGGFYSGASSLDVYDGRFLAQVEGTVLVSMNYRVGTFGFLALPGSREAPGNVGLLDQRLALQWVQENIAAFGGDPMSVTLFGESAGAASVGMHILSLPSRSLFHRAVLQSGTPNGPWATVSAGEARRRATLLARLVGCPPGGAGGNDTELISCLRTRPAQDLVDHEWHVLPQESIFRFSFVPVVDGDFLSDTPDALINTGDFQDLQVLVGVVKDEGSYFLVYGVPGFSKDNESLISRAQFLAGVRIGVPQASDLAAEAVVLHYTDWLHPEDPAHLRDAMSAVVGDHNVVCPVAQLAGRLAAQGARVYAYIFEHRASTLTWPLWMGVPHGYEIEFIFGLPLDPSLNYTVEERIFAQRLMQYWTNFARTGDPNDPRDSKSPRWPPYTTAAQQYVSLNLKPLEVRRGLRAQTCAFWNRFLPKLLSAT
# UniProt F1M9V7, 1-920: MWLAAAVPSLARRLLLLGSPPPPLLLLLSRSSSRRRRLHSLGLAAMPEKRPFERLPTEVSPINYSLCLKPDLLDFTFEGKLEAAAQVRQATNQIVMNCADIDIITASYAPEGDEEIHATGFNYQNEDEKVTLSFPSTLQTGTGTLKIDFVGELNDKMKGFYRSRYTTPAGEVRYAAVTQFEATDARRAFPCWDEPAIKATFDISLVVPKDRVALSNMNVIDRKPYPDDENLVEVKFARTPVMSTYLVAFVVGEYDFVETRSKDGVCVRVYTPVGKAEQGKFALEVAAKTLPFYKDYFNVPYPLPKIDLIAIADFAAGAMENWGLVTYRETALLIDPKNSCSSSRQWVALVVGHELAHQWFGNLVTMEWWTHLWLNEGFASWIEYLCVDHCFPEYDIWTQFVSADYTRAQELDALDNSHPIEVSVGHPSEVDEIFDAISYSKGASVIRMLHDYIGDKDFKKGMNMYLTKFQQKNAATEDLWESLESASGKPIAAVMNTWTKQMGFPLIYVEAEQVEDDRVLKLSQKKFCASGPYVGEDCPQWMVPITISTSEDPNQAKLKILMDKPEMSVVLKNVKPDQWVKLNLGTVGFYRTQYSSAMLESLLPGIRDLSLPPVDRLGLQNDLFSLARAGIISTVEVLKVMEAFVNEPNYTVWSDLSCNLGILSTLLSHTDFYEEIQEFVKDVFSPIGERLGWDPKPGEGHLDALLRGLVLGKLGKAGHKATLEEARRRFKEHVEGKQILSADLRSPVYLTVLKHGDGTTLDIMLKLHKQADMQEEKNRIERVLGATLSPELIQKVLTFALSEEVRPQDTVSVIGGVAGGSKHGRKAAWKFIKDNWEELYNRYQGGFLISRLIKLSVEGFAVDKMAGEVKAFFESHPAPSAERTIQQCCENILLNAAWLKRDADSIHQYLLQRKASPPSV
# Compare with care: the assays were run in different laboratories. Numbers after ± are the reported error.
Compound,tested on,test,system,conditions,scale,measurement,value
Cc1ccc2[nH]cc(CNCC3(N4CCCC4)COC3)c2c1,A 172,,,"30 µM, 48 h",relative to: DMSO,viability,98.6%
Cc1nn(-c2ccc(Cl)cc2)c2c1C(c1ccc(O)cc1)C(C#N)=C(N)O2 (stereo not shown),Vero E6,MTT,,25 µM,,viability,55.9%
CC[C@H](C)[C@@H]1NC(=O)[C@H](CCC(=O)O)NC(=O)[C@@H]2CCCN2C(=O)[C@H](Cc2c[nH]cn2)NC(=O)[C@H](CCCNC(=N)N)NC(=O)[C@H](C(C)C)NC(=O)[C@H](CC(N)=O)NC(=O)[C@@H]2CSSC[C@H](NC(=O)CN)C(=O)N[C@@H](CSSC[C@@H](C(N)=O)NC1=O)C(=O)N[C@@H](CO)C(=O)N[C@@H](Cc1c[nH]cn1)C(=O)N1CCC[C@H]1C(=O)N[C@@H](C(C)C)C(=O)N2,"Neuronal acetylcholine receptor; alpha2/beta2 (Homo sapiens, UniProt P17787+Q15822)","ion current, antagonist, two-electrode voltage clamp",Xenopus oocytes,"human, added: ACh 100 µM",,IC50,> 10 µM
CCOC(=O)c1c(-c2ccc(Cl)cc2Cl)n(-c2nc(-c3ccc(Cl)cc3)c3c(NC(=O)c4ccccc4)nnc-3[nH]2)[nH]c1=O,SR,SRB,,,,CC50,> 100 µM
O=C(Nc1cccc(C2=NCCN2)c1)c1ccc(-c2ccc(C(=O)Nc3cccc(C4=NCCN4)c3)cc2)cc1,Trypanosoma brucei,safranine fluorescence,procyclic form,"5 µM, unit not given",higher = stronger uncoupling,membrane potential change,81 ± 2.9
CC(C)C[C@H](NC(=O)[C@@H](NC(=O)c1cc2ccccc2[nH]1)C(C)C)C(=O)N[C@H](C=O)C[C@@H]1CCCNC1=O,A549,MTT,,24 h,,CC50,> 100 µM
Cc1nn(-c2ccc(Cl)cc2)c2c1C(c1cccc(Cl)c1Cl)C(C#N)=C(N)O2 (stereo not shown),Vero E6,,,1.6 µM,,viability,80.2%
Fc1ccc2[nH]cc(CNCC3(N4CCCC4)COC3)c2c1,U87,single-dose screen,,"30 µM, 48 h",relative to: DMSO control,viability,98.7%
COP(=O)(OC)Oc1ccc([N+](=O)[O-])cc1Cl,"Ache (Rattus norvegicus, UniProt P37136)","enzyme activity, inhibitor, discontinuous Ellman","rat, postnatal day 12, rat heart homogenate","15 min, 37 °C",,IC50,0.084 µM
N#Cc1c(-c2ccc(Cl)cc2Cl)n(-c2nc(-c3ccc(Cl)cc3)c3c(NC(=O)c4ccccc4)nnc-3[nH]2)[nH]c1=O,A549/ATCC,NCI60 SRB,,5 log dose range,,CC50,> 100 µM
Cc1nn(-c2ccc(Cl)cc2)c2c1C(c1ccc([N+](=O)[O-])cc1)C(C#N)=C(N)O2 (stereo not shown),Vero E6,MTT,,100 µM,,viability,49.7%
NC12CC3CC(F)(CC(C1)c1ccccc13)C2,Caco-2,,,,relative to: Papp B-A over Papp A-B,efflux ratio,0.7 ± 0.1
CC(C)C[C@H](NC(=O)[C@H](Cc1ccccc1)NC(=O)CNC(=O)CNC(=O)[C@@H](N)Cc1ccc(O)cc1)C(=O)O,"Puromycin-sensitive aminopeptidase (Rattus norvegicus, UniProt F1M9V7)",substrate,,rat enzyme,,Km,117 µM

# Some of these lines once more:
Compound,tested on,test,system,conditions,scale,measurement,value
N#Cc1c(-c2ccc(Cl)cc2Cl)n(-c2nc(-c3ccc(Cl)cc3)c3c(NC(=O)c4ccccc4)nnc-3[nH]2)[nH]c1=O,A549/ATCC,NCI60 SRB,,5 log dose range,,CC50,> 100 µM
